{"data": "Measured values pooled from the literature", "note": "Numbers after ± are the reported error."}
{"Compound": "O=S(=O)(c1ccc(-c2ccc3nccc(Nc4ccncc4)c3c2)cc1)N1CCOCC1", "organism": "Plasmodium falciparum", "assay": "parasite growth, SYBR Green", "system": "TM91C235", "EC50": "540 nM"}
{"Compound": "O=C(NCCCN1CCOCC1)c1ccc(Nc2ncc(Cl)c(-c3ccc(Cl)s3)n2)cc1", "organism": "Plasmodium berghei", "assay": "liver stage parasite load, luciferase", "system": "HepG2, ANKA", "conditions": "44 h post-infection", "EC50": "3400 nM"}
{"Compound": "O=S(=O)(c1ccc(-c2ccc3nccc(Nc4ccc5[nH]nnc5c4)c3c2)cc1)N1CCOCC1", "organism": "Plasmodium falciparum", "assay": "parasite growth, SYBR Green", "system": "TM91C235", "EC50": "180 nM"}
{"Compound": "CC1(C)c2nc(-c3ccc(F)cc3)c(Nc3ccc(F)cc3)n2CCN1C(=O)CN", "organism": "Plasmodium berghei", "assay": "checkerboard model fit", "system": "HepG2 spheroids", "EC50": "371 nM"}
{"Compound": "NC[C@H](OCC(=O)N1CCC[C@H](C(=O)NCc2nc(-c3ccc(C(F)(F)F)cc3)cs2)C1)c1ccccc1", "organism": "Plasmodium falciparum", "assay": "SYBR Green growth", "system": "asexual blood-stage parasites, 3D7", "conditions": "72 h", "EC50": "400 ± 97 nM"}
{"Compound": "O=S(=O)(c1ccc(-c2ccc3nccc(Nc4ncc(Cl)cn4)c3c2)cc1)N1CCOCC1", "organism": "Plasmodium falciparum", "assay": "parasite growth, SYBR Green", "system": "D6", "EC50": "1000 nM"}
{"Compound": "CC(C)(C)OCC(=O)N1CCC[C@H](C(=O)NCc2nc(-c3ccccc3)cs2)C1", "organism": "Plasmodium falciparum", "assay": "SYBR Green growth", "system": "asexual blood-stage parasites, 3D7", "conditions": "72 h", "EC50": "3600 ± 1400 nM"}
{"Compound": "O=C(NCCN1CCCC1)c1cc(-c2ccc(CN3CCOCC3)cc2)nc2ccc(F)cc12", "organism": "Plasmodium berghei", "assay": "checkerboard model fit", "system": "HepG2 spheroids", "EC50": "3.58 nM"}
{"Compound": "Cc1cc(OC(C)C)ccc1C(=O)C(C)(C)NC(=O)c1sccc1C", "organism": "Corynespora cassiicola", "assay": "mycelial growth", "system": "PSA medium", "conditions": "20 °C", "EC50": "0.35 µg/mL"}
{"Compound": "COCC(=O)N1CCC[C@H](C(=O)NCc2nc(-c3ccc(-c4cccnc4)cc3)cs2)C1", "organism": "Plasmodium falciparum", "assay": "SYBR Green growth", "system": "asexual blood-stage parasites, 3D7", "conditions": "72 h", "EC50": "26 ± 7.4 nM"}
{"Compound": "O=S(=O)(c1ccc(-c2ccc3nccc(Nc4ccccc4)c3c2)cc1)N1CCOCC1", "organism": "Plasmodium falciparum", "assay": "parasite growth, SYBR Green", "system": "W2", "EC50": "1500 nM"}
{"Compound": "Cc1cnc(Nc2ccc(C(=O)N3CCC(N4CCCC4)CC3)cc2)nc1-c1ccc(Cl)s1", "organism": "Plasmodium berghei", "assay": "liver stage parasite load, luciferase", "system": "HepG2, ANKA", "conditions": "44 h post-infection", "EC50": "2400 nM"}
{"Compound": "CCOCC(=O)N1CCC[C@H](C(=O)NCc2nc(-c3ccc(C)nc3)cs2)[C@@H]1C", "organism": "Plasmodium falciparum", "assay": "parasite growth, SYBR Green", "system": "3D7, asexual blood stage", "conditions": "72 h", "EC50": "9.3 ± 2.9 nM"}
{"Compound": "O=S(=O)(c1ccc(-c2ccc3nccc(Nc4ccncn4)c3c2)cc1)N1CCOCC1", "organism": "Plasmodium falciparum", "assay": "parasite growth, SYBR Green", "system": "W2", "EC50": "> 20000 nM"}
{"Compound": "COCC(=O)N1CCC[C@H](C(=O)N(C)Cc2nc(-c3ccccc3)cs2)C1", "organism": "Plasmodium falciparum", "assay": "SYBR Green growth", "system": "asexual blood-stage parasites, 3D7", "conditions": "72 h", "EC50": "> 5000 nM"}
{"Compound": "COc1cc2c(cc1OC)[C@@H]1C(=O)c3ccc4c(c3O[C@@H]1CO2)C=CC(C)(C)O4", "organism": "human adenovirus C5", "assay": "progeny virus production", "system": "A549", "conditions": "72 h", "EC50": "80 nM"}
{"note": "Repeated from above:"}
{"Compound": "CCOCC(=O)N1CCC[C@H](C(=O)NCc2nc(-c3ccc(C)nc3)cs2)[C@@H]1C", "organism": "Plasmodium falciparum", "assay": "parasite growth, SYBR Green", "system": "3D7, asexual blood stage", "conditions": "72 h", "EC50": "9.3 ± 2.9 nM"}
{"Compound": "O=S(=O)(c1ccc(-c2ccc3nccc(Nc4ccncn4)c3c2)cc1)N1CCOCC1", "organism": "Plasmodium falciparum", "assay": "parasite growth, SYBR Green", "system": "W2", "EC50": "> 20000 nM"}
